Assay results gathered from unrelated publications.
Lines come from different studies, so protocols differ. Numbers after ± are the reported error.
Target: N-formyl peptide receptor 2 (FPR2, Homo sapiens, UniProt P25090)
Sequence (P25090 1-351, as in one of the studies): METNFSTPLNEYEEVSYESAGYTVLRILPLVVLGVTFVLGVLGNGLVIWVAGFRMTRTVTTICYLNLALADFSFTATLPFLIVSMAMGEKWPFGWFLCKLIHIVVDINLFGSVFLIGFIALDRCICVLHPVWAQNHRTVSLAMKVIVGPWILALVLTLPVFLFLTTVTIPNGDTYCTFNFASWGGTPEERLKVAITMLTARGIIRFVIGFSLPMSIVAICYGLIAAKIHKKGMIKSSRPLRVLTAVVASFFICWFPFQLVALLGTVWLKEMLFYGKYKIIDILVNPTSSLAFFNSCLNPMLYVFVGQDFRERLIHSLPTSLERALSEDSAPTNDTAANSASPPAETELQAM

| Molecule | test | system | conditions | quantity | value |
| --- | --- | --- | --- | --- | --- |
| CC1=NN(CC(=O)Nc2ccc(Br)cc2)C(=O)CC1c1ccccc1 (racemic) | calcium signal, agonist |  |  | EC50 | 630 nM |
| C[C@@](Cc1c[nH]c2ccccc12)(NC(=O)Nc1ccc([N+](=O)[O-])cc1)C(=O)NCC1(c2ccccn2)CCCCC1 | calcium mobilization, agonist | HL-60 cells expressing FPR2 |  | EC50 | 620 ± 260 nM |
| CC1=NN(CC(=O)Nc2ccc(Br)cc2)C(=O)CC1C (racemic) | calcium signal, agonist |  |  | EC50 | 2600 nM |
| COc1ccc(NC(=O)N[C@H](Cc2ccc(O)cc2)C(=O)NCC2(c3ccccc3)CC2)cc1 | calcium signal, antagonist |  |  | IC50 | 24800 nM |
| CCC[C@H](C(=O)Nc1ccc(Br)cc1)n1nc(C)cc(Cc2cccc(OC)c2)c1=O | calcium mobilization, agonist | HL-60 transfected with FPR2 |  | EC50 | 840 nM |
| serum amyloid A protein | radioligand competition | HEK293 expressing FPR2 | 30 min, 4 °C, added: [3H]lipoxin A4 | IC50 | 10 to 100 nM |
| CCC(C(=O)Nc1ccc(Br)cc1)n1nc(C)cc(Cc2cccc(OC)c2)c1=O (racemic) | calcium mobilization, agonist | HL-60 transfected with FPR2 |  | EC50 | 2200 nM |
| COc1ccc(C2(CNC(=O)[C@](C)(Cc3c[nH]c4ccccc34)NC(=O)Nc3ccc([N+](=O)[O-])cc3)CCCCC2)nc1 | calcium mobilization, agonist | HL-60 cells expressing FPR2 |  | EC50 | 1300 ± 350 nM |

A few entries again:
| Molecule | test | system | conditions | quantity | value |
| --- | --- | --- | --- | --- | --- |
| COc1ccc(C2(CNC(=O)[C@](C)(Cc3c[nH]c4ccccc34)NC(=O)Nc3ccc([N+](=O)[O-])cc3)CCCCC2)nc1 | calcium mobilization, agonist | HL-60 cells expressing FPR2 |  | EC50 | 1300 ± 350 nM |
